Values quoted from earlier work, collected from citations in different studies.
Lines come from different studies, so protocols differ. ± marks the error that the study gave. Values after ≈ are worked out from the molar mass of the structure shown.

`C[C@@H](Nc1c(-c2c(F)cc(C#CCCN(C)C)cc2F)c(Cl)nc2ncnn12)C(C)(C)C` — result for “acetylated α-tubulin level”: 9.5 ± 0.34 (HEK293; 1 µM, 4 h, unit not given; relative to: vehicle (DMSO)).
`C=CC(OS(=O)(=O)O)c1ccc(OC)cc1` (centres unmarked) has a scaled Vmax of 0.2 µmol/h/g liver (male rat, liver; sulfonation).
`O=C(Nc1ccccc1-c1ccc(Cl)cc1)c1nccnc1C(F)(F)F` gave an EC80 of 2 to 10 mg a.i./L (Puccinia triticina; wheat).
Under “total α-tubulin level”, `CN(C)CCCOc1cc(F)c(-c2c(Cl)nc3ncnn3c2NCC2CCC2)c(F)c1` is recorded as 0.8 ± 0.03 (HEK293; 1 µM, 4 h, unit not given; relative to: vehicle (DMSO)).
Under “water exchange rate constant”, `CC#N.Cc1ccc(O)c(CN(CCN(Cc2ccccn2)Cc2ccccn2)Cc2ccccn2)c1.[Mn+2]` is recorded as 1.3e+08 s⁻¹ (pH 7.4, 298 K).
Under “total α-tubulin level”, `CN(C)CCCOc1cc(F)c(-c2c(Cl)nc3ncnn3c2NCC2(C)CC2)c(F)c1` is recorded as 1.1 ± 0.2 (HEK293; 10 µM, 4 h, unit not given; relative to: vehicle (DMSO)).
`O=C1c2ccccc2-c2c1c1ccccc1c(=O)n2C[C@@H](O)[C@@H](O)[C@H](O)CO` has a mean growth of 50.6% (60 cancer cell lines; cell growth; 10 µM).
Under “tumour growth inhibition”, `CC1=CCC23OC2(C)CCC2C(CN(C)C)C(=O)OC2C13.Cl` (centres unmarked) is recorded as 70% (sarcoma 180 tumour model; host not given; intraperitoneal and intratumoral, concentration not given).
Under “acetylated α-tubulin level”, `CNCCCOc1cc(F)c(-c2c(Cl)nc3ncnn3c2NCC(F)(F)F)c(F)c1` is recorded as 4.56 ± 0.8 (HEK293; 1 µM, 4 h, unit not given; relative to: vehicle (DMSO)).
`O=C(Nc1ccccc1-c1ccc(Br)cc1)c1nccnc1C(F)(F)F` has an EC80 of 2 to 10 mg a.i./L (Botrytis cinerea; cucumber).
Under “acetylated α-tubulin level”, `CC(=O)NCCCOc1cc(F)c(-c2c(Cl)nc3ncnn3c2N[C@@H](C)C(F)(F)F)c(F)c1` is recorded as 4.46 ± 0.68 (HEK293; 1 µM, 4 h, unit not given; relative to: vehicle (DMSO)).
`O=C(Nc1ccccc1-c1cccc(Cl)c1)c1nccnc1C(F)(F)F` gave an EC80 of 2 to 10 mg a.i./L (Blumeria graminis; barley).
`CNCCCOc1cc(F)c(-c2c(Cl)nc3ncnn3c2N[C@@H](C)C(F)(F)F)c(F)c1` — result for “total α-tubulin level”: 0.27 ± 0.01 (HEK293; 10 µM, 4 h, unit not given; relative to: vehicle (DMSO)).
With `O=C(Nc1ccccc1-c1ccc(C(F)(F)F)c(F)c1)c1nccnc1C(F)(F)F` the EC80 was 0.5 to 2 mg a.i./L (Blumeria graminis; barley).
With `C=CCC(=N)NCCC[C@H](N)C(=O)O` the selectivity ratio was 25 fold (human nNOS; relative to: human nNOS (cell lysate) over purified eNOS).
With `CC(=O)O[C@@H]1[C@@H](OC(C)=O)C2=C(C(=O)C(O)=C(C(C)C)C2=O)[C@@]2(C)CCCC(C)(C)[C@H]12` the GI50 was 5 to 10 µM (MOLT-3).
With `O=C(Nc1ccccc1-c1cccc(F)c1)c1nccnc1C(F)(F)F` the EC80 was 10 to 40 mg a.i./L (Botrytis cinerea; cucumber).
The MIC90 of `C[C@@](CCn1ccc(-c2ccccc2)cc1=O)(C(=O)NO)S(C)(=O)=O` is reported as 16 µg/mL (≈ 43.9 µM) (Enterobacter spp.).
`O=C(Nc1ccccc1-c1ccc(Cl)c(F)c1)c1nccnc1C(F)(F)F` has an EC80 of 2 to 10 mg a.i./L (Botrytis cinerea; cucumber).
For `CN(C)CCCOc1cc(F)c(-c2c(Cl)nc3ncnn3c2NCC(C)(C)C)c(F)c1`, “acetylated α-tubulin level” read 0.52 ± 0.07 (HEK293; 10 µM, 4 h, unit not given; relative to: vehicle (DMSO)).
`C/C=C/CNC(=N)NCCCCCCCCN1CCCCCCCCNC(=N)NC1=O` gave an MIC50 of 20 µg/mL (≈ 45.9 µM) (Candida glabrata).
With `O=C(Nc1ccccc1-c1cc(F)cc(F)c1)c1nccnc1C(F)(F)F` the EC80 was 0.5 to 2 mg a.i./L (Blumeria graminis; barley).
For `C[C@@H](Nc1c(-c2c(F)cc(OCCCO)cc2F)c(Cl)nc2ncnn12)C(C)(C)C`, “total α-tubulin level” read 0.96 ± 0.03 (HEK293; 1 µM, 4 h, unit not given; relative to: vehicle (DMSO)).
`CC(=O)N[C@H](CSSC[C@H](N)C(=O)O)C(=O)N[C@H](C)C(=O)N[C@H](CCCNC(=N)N)C(=O)N[C@H](CCCNC(=N)N)C(=O)N[C@H](CCCNC(=N)N)C(=O)N[C@H](C)C(=O)N[C@H](CCCNC(=N)N)C(N)=O`: ectopic calcification “decreased” (5/6 nephrectomized rat; dose not given).
The EC80 of `O=C(Nc1ccccc1-c1ccc(F)cc1F)c1nccnc1C(F)(F)F` is reported as 0.5 to 2 mg a.i./L (Blumeria graminis; barley).
`CNC(=O)c1ccccc1Oc1nc(Nc2cc(OC)c(OC)c(OC)c2)ncc1Br` gave an inhibition of 63% (ULK1; 1 µM).

Some of these lines once more:
Under “acetylated α-tubulin level”, `CNCCCOc1cc(F)c(-c2c(Cl)nc3ncnn3c2NCC(F)(F)F)c(F)c1` is recorded as 4.56 ± 0.8 (HEK293; 1 µM, 4 h, unit not given; relative to: vehicle (DMSO)).
`O=C(Nc1ccccc1-c1ccc(Br)cc1)c1nccnc1C(F)(F)F` has an EC80 of 2 to 10 mg a.i./L (Botrytis cinerea; cucumber).
Under “acetylated α-tubulin level”, `CC(=O)NCCCOc1cc(F)c(-c2c(Cl)nc3ncnn3c2N[C@@H](C)C(F)(F)F)c(F)c1` is recorded as 4.46 ± 0.68 (HEK293; 1 µM, 4 h, unit not given; relative to: vehicle (DMSO)).
